Assay results collected from several papers.
Each line is one published result; not all experiments were run side by side. ± marks the error that the study gave.

C[C@@H]1CCCN1CCc1cc2cc(C(=O)c3ccc([18F])cc3)ccc2o1  time of peak uptake (rhesus monkey, frontal cortex; baseline): ~47.5 min
N#CC1(c2ccc3c(N)ncnn23)OC(COP(=O)(O)OP(=O)(O)OP(=O)(O)O)C(O)C1O (stereo not shown)  Cmax (LC-MS/MS; CD-1 mouse, lung; oral, 100 mg/kg of remdesivir): 151 nmol/kg
CC(C)C[C@@H](N)C(=O)NCC(=O)N[C@H](C)C(=O)N[C@H](CO)C(=O)N[C@H](Cc1c[nH]c2ccccc12)C(=O)N[C@H](Cc1c[nH]cn1)C(=O)N[C@H](CCCNC(=N)N)C(=O)N1CCC[C@@H]1C(=O)N[C@H](CC(=O)O)C(=O)N[C@H](CCCCN)C(=O)N[C@H](CS)C(=O)N[C@H](CS)C(=O)N[C@H](CC(C)C)C(=O)NCC(=O)N[C@H](Cc1ccc(O)cc1)C(=O)N[C@H](CCC(N)=O)C(=O)N[C@H](CCCCN)C(=O)N[C@H](CCCNC(=N)N)C(=O)N1CCC[C@@H]1C(=O)N[C@H](CC(C)C)C(=O)N1CCC[C@@H]1C(N)=O  accuracy (LC-MS/MS; rat plasma; 500 ng/mL, 30 days, -80 °C, storage; reference: nominal): 112%
CC[C@H](C)C(=O)N1CCC(NC(=O)Nc2ccc(OC(F)(F)F)c(F)c2)CC1  subjects with treatment-emergent photophobia (healthy volunteers, both sexes; oral, 8 mg, fasted state): 0%
O=C(NCCCCCn1ccc2ccc(F)cc21)Oc1cccc(F)c1  inhibition of degradation (porcine liver S9 fraction; 20 µM, 30 min, together with: BNPP 1 mM): 45%
CC(C)C[C@H](NC(=O)[C@H](Cc1ccc(O)cc1)NC(=O)[C@H](C)NC(=O)[C@H](CC(N)=O)NC(=O)[C@H](CC(C)C)NC(=O)[C@H](C)NC(=O)[C@@H](NC(=O)[C@H](CCCCN)NC(=O)CNC(=O)[C@@H](NC(=O)[C@H](CC(N)=O)NC(=O)[C@H](CCCCN)NC(=O)CNC(=O)[C@@H](NC(=O)[C@H](Cc1c[nH]cn1)NC(=O)[C@H](C)NC(=O)[C@H](C)NC(=O)[C@H](CCCCN)NC(=O)[C@H](CCCCN)NC(=O)[C@H](Cc1ccccc1)NC(=O)[C@H](Cc1c[nH]c2ccccc12)NC(=O)[C@H](CCCCN)NC(=O)[C@H](CCCCN)NC(=O)[C@H](CS)NC(=O)CN)C(C)C)C(C)C)C(C)C)C(N)=O  acute toxic concentration (zebrafish embryos; 1 h, 4, 28, 52 hpf): 5 to 25 µg/mL
CC(C)[C@H](NC(=O)CNC(=O)[C@H](CCC(N)=O)NC(=O)[C@H](C)N)C(=O)O  subjects with serious adverse events (human; intravenous infusion, 15 mg/kg/h, 2 h infusion): 0%
[11CH3]n1c(=O)n(CCCO)c(=O)c2c1nc(Oc1cccc(OC(F)(F)F)c1)n2Cc1ccc(Cl)cc1  tracer uptake (ex vivo biodistribution; Sprague Dawley rat, heart; 60 min post injection): 0.61 ± 0.13 %ID/g
CC(=CCC(O)C(C)=Cc1csc(C)n1)CC=CC(C)C(O)C(C)C(=O)C(C)(C)C(O)CC(=O)O (stereo not shown)  AUC (human, plasma; intravenous infusion, 15.0 mg/m2 KOS-1584, 3 h infusion, cycle 1): 226 ± 165 ng·h/mL
CC(C)C[C@@H](NC(=O)[C@@H](Cc1ccccc1)NC(=O)[C@H](N)Cc1ccccc1)C(=O)N[C@H](CCCCN)C(=O)N1CCC(N)(C(=O)O)CC1  terminal half-life (human, plasma; intravenous, 5 and 15 µg/kg): 2 h

Some of these lines once more:
C[C@@H]1CCCN1CCc1cc2cc(C(=O)c3ccc([18F])cc3)ccc2o1  time of peak uptake (rhesus monkey, frontal cortex; baseline): ~47.5 min
